Measurements collected from several papers.
Every numbered part comes from another study and shows a few of its results, in no order.

Study 1 — method: RNA Bind-n-Seq; form: RNA; medium: in vitro; concentration: 365 nM; reference: no-protein control; direction: higher = stronger binding; measurement: RBNS enrichment (R)
Target: RNA binding protein fox-1 homolog 2, RRM domain, GST-SBP tag (RBFOX2, Homo sapiens, UniProt O43251-10, residues 100-194)
Notes: natural RNA segment, single round, ends assumed
Constant ends, left off below: GGGAGUUCUACAGUCCGACGAUC … UGGAAUUCUCGGGUGCCAA
Residues (chain): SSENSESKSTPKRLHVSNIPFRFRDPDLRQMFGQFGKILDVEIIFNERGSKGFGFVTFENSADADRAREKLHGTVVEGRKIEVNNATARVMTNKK
UGUCAUUGGGUAUAUAUGUAUUUACUCUCUAUUAUUGGGCAUAAAGGUGGCUUCUGCUCCAGAACUCUAUCCACUGUAUUUCCACAUCGUGAGUCAUUUUACUUUAAAAG: 0.397
GGGCCUGUGCCGUGAAUUGAAUGGAACACUACUUUGAGGCCCUUGGAGAGUGACAGCAGCUAUAGGGUGGACUCAGGAGCUGUCAGUCUUAACAGCUGAGCCUUGGACCC: 0.821
GAAUAUGAAGGAUAGCUGAGCUGUAGCCUCCAGAGUGGGGCAUGCCUAGGCAUAUGGCUGGCUUGGAGACUACUGAUGCUUUUCCCUGAGUUUGUUAUUGGCACUGAAGU: 0.736
AAUUCAGUAUCCUUAUUUGUUCCAAGACUCUUAACCAAUACUGUGAUAUAAAGUUAGGAUUUGGGAAACGUGUAGUUAACAACUUGGAAACAUGAAGAUAUUAAAAUGGC: 0.434
GGCAGACAUGGCCCACAUCAGUGGCCUGGUGGCUGCCAAGGUGAUUCCCUCGCCUUUCAAGCACGCGGACAUCGUCACCACCACUACUCACAAGACUCUUCGAGGGGCCA: 0.669
UGCCACGUGCUGCUGCCGCCAGGAUAUGCGCCUUCCCACAGGUGCCCUGCCUGAGUUGUGUGCAUCCAGGGGCCUGGUGAGCCCCCAGGCUGGUGGCAUGGCCCCCCUGC: 0.682
GCUUACCACUCUCCAGGGCCUCCUGGGGAGCCUGUCCUGUGUUCACUUUGUUUCAGGCUGGUCUGUGCCCCGUGAGCCACAUGGCCUAGGGUGAUGCCAGGUUGUCCCGU: 0.243
GAGCGACCGUGGAUGUGCCGCCAUCUCGGCUCCCAUCCUCUGAAGAUGCCGAACCCAUGGUCACUUAUAUAUUUUUUGUAAUUACUAUAUUCUAGUUUGGAGUACUUGCU: 1.08
UUUGAGACAUCCCCAUUUCUAUGUAGGUGGGAUUUUGCUUUCAUUUCUGAUUUAAAUUAGCUCCUUGUGUCCUUGCUUUAUCUUUGGGGCAUCUUUAGUUCCAAGAACUG: 1.25
GAAGUUAUCUACAAGCCGCUGGGGCUUGGGGGCUCCACUGGCUCCCCCCAGCCCCCUAAGAGAGCACCUGGUGAUCACGUGGUCACGGCAAAGGAAGACGUGAUGCCAGG: 0.391
AUGGAGAUGCUCAAGGCCAGCAAGCCCCUCAGGCCAGCACUUCGCUUGCAGAAGCCAUCCAUUCACUCCUGGGGUGCAGGGCACGCAAGAGAGCUUCCCAUUGCUUCUGC: 0.902
GGCAUCAGAGGGAAGGGAGGCUGGGGCUGCAGGGCAGUGAAACCCACGCAGCCUAGGCCAGAGCACUUUACUCCAGGCAGGGCCCCUGCCCCUGUUGGCCACAGCUUAUG: 0.243

Study 2 — method: RNA Bind-n-Seq; form: RNA; medium: in vitro; concentration: 200 nM; notes: whole 134-nt RNA, ends assumed; added: 150 mM LiCl; reference: input library; direction: higher = stronger binding; measurement: log2 enrichment; all molecules: 7-deaza-guanosine replaces G
Target: Fragile X messenger ribonucleoprotein 1, C-terminal low-complexity region (Fmr1, Mus musculus, UniProt P35922)
Constant ends, left off below: GGGAGUUCUACAGUCCGACGAUC … UGGAAUUCUCGGGUGUCAAGG
UCAAGUCCUGUGCUACACAUCGUAUGUACCGAAUCGGUUUGGGUUUGGUUUGGGGAAAGUAUUAUGUUACGCCGUUCGGAUCUGCACUUC: -1.24
UCAAGUCCUGUGCUACACAUCGUAUGUACCGAAUCGGGAAGGAAGGGGAAGGGGAAAGUAUUAUGUUACGCCGUUCGGAUCUGCACUUCC: -0.566
UUCCUCAAGUCCUGUGCUACACAUCGUAUGUACCGAAUCGGUGGGUGGUGGAAAGUAUUAUGUUACGCCGUUCGGAUCUGCACUUCCAGC: 0.698
CCUGUGCUACACAUCGUAUGUACCGAAUCGGGGAAAGGGGUUUUUGGGGAAAAAAAGGGGAAAGUAUUAUGUUACGCCGUUCGGAUCUGC: -0.136
GUCCUGUGCUACACAUCGUAUGUACCGAAUCGGGCCCCCGGGGCCCCCGGCCCCCGGGGAAAGUAUUAUGUUACGCCGUUCGGAUCUGCA: -2.89
ACCAUGCAGGUGGGCAUCUUUGGGAAGUGGGGCAAGGGGGGGAUAGGGAGGGGGGUAACACUUUGGGAACAGGUGGUCCCAGCUCGUUUC: 0.995
CCUCAAGUCCUGUGCUACACAUCGUAUGUACCGAAUCGGAAAGGUUUGGUGGAAAGUAUUAUGUUACGCCGUUCGGAUCUGCACUUCCAG: -0.93
UUGUGUUCGUGAAUUGUAACUCCAGAAGCAAUGCCUGUACAAGCUCCACAAUGGACGGAUUUCCUCUCCUGCCCAAUUUGCACUCAGACU: 1.8
GUCCUGUGCUACACAUCGUAUGUACCGAAUCGGGGAAAGGGGAGGGGUUUUUUUGGGGAAAGUAUUAUGUUACGCCGUUCGGAUCUGCAC: 0.624
AGUCCUGUGCUACACAUCGUAUGUACCGAAUCGGGAAAGGGUUUUUGGGUUUUUGGGAAAGUAUUAUGUUACGCCGUUCGGAUCUGCACU: -2.76
GUCCUGUGCUACACAUCGUAUGUACCGAAUCAAACCCAAAUUUUUUUAAAUUUUUAAAAAAGUAUUAUGUUACGCCGUUCGGAUCUGCAC: -1.95

Study 3 — method: protein-binding microarray; form: double-stranded DNA, one strand shown; medium: in vitro; concentration: 250 nM; notes: 60-bp whole probe; added: salmon DNA 0.4 mg/ml; reference: random background probes; direction: higher = stronger binding; measurement: log fluorescence; constant ends, left off below: GCCTAGCAC … GTCTTGATTCGCTTGACGCTGCTG
Target: Interferon regulatory factor 7, full length, phosphomimetic (IRF7, Homo sapiens, UniProt Q92985, residues 1-503, S101K/S471D/S472D/S475D/S476D/S477D/S483D/S484D/S487D)
Chain of UniProt Q92985 (whole entry, unmodified, looked up): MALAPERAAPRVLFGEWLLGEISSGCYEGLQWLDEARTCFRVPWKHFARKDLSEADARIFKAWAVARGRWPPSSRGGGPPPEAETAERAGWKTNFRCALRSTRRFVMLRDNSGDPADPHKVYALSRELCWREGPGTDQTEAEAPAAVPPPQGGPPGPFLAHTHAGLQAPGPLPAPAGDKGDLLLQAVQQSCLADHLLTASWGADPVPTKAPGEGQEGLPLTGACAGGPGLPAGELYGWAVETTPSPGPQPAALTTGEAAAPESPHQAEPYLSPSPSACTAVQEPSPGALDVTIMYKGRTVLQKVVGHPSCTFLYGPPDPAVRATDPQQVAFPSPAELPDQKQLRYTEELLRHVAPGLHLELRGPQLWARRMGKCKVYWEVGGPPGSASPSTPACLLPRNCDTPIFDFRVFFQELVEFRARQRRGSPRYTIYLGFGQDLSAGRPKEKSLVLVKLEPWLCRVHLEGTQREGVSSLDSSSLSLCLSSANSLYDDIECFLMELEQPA
GACGGTTCCGGTTACGGGACGTGCTAG: 1.57 z-score
GACGATACCAGTATCGAGACGTGCTAG: 0.317 z-score
GACGGTTTCGACACTGGGTACGTGCTA: 3.84 z-score
CCTCAGCTCCCTTTCTCTCTGTGCTAG: -0.369 z-score
TCAGCTGTCCTTTGCAAACTGTGCTAG: -0.459 z-score
TTAGGTATGCTTATCCTTTAGTGCTAG: -0.0713 z-score
GACGAACTGAGACTGGAAACGTGCTAG: 0.237 z-score
TTAGGGCTCCTTTTCCTTTAGTGCTAG: 1.46 z-score
TCATGTTTGTCACTCTCACTGTGCTAG: 0.609 z-score
TTAGAACTGAGTATCGGTTAGTGCTAG: 0.723 z-score
CAGAAAATAGAAACTCGTGTTGTGCTA: 1.41 z-score
GACGGACTGGACACTGGGGACGTGCTA: -0.695 z-score
GACCCTGGACACTTCACGTAGTGCTAG: -0.0718 z-score
TTAGGTTTCTTTCTCCTTTAGTGCTAG: 2.81 z-score
AATTACATTTCATAGAGTGTGTGCTAG: 0.219 z-score
TCACATTAAATTTTAATACTGTGCTAG: 0.611 z-score
TCAAATTTCTTTCTAATACTGTGCTAG: 0.659 z-score
GACGAACTGGGTCTCGGGACGTGCTAG: -0.0758 z-score
TTAGGTTTCGACACTGGGTGAGTGCTA: 3.36 z-score

Study 4 — method: universal PBM; form: double-stranded DNA, one strand shown; medium: in vitro; concentration: 600 nM; direction: higher = stronger binding; measurement: E-score
Target: Sal-like protein 4, full length isoform A (SALL4, Homo sapiens, UniProt Q9UJQ4, residues 1-1053)
Chain of UniProt Q9UJQ4 (whole entry, looked up): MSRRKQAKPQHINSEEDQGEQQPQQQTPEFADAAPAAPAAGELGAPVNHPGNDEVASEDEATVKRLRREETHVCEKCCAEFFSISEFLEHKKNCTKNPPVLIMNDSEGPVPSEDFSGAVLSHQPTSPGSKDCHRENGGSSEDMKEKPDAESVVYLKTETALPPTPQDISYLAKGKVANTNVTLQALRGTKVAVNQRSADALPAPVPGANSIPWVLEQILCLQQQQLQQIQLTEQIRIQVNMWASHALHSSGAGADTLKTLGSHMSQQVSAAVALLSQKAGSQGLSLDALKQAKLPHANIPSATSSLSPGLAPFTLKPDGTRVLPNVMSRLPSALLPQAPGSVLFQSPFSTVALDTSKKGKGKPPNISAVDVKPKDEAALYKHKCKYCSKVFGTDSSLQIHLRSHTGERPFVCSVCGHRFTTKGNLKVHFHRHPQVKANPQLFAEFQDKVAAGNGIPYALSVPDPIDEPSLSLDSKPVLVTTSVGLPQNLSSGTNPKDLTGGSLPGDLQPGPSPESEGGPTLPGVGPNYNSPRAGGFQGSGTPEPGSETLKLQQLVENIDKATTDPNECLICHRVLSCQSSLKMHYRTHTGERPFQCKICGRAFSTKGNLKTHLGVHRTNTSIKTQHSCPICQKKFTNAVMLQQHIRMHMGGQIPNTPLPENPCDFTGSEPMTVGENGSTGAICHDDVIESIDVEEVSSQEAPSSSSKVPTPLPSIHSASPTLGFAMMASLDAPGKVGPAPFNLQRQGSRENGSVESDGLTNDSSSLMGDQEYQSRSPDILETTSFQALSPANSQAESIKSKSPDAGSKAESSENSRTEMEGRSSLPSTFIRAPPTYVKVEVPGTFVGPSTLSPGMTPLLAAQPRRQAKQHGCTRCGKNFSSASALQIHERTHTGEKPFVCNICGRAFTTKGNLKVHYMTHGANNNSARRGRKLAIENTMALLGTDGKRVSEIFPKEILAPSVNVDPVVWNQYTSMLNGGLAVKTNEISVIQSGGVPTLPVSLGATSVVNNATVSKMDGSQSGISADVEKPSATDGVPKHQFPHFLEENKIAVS
Notes: 8-mer, flanks averaged, mean of replicates
CAATTCGC: 0.00675
CAAAGAGA: 0.0728
CCTTCTAA: 0.109
AACCCGAA: 0.00203
CTGCTCGA: -0.241
ATTATCGC: 0.333
AACTGTCA: 0.0989
CCATAGAA: 0.0961
CCAGAAGG: -0.146
AACACATG: 0.121
ATCATGGA: 0.0765
CTCTGGGC: -0.166
GCGTGGTA: -0.117
AAGACTAT: 0.155
AGATGCAC: -0.0207
AAAATGCT: 0.166
TGAAGGAA: 0.229
